Published values from different studies.
Parts stem from different laboratories: compare values within a part only. Positions count from the first letter of the parent shown.

Sample 1 — method: universal PBM; molecule type: double-stranded DNA, one strand shown; matrix: in vitro; tested at: not given; direction: higher = stronger binding
Target: Sal-like protein 4, full length isoform B (SALL4, Homo sapiens, UniProt Q9UJQ4-2, residues 1-616)
Setting: 8-mer, flanks averaged, mean of replicates
Strand	E-score
TTCATGAA	0.238
GAAGATTC	0.095
ACTGGGAC	0.0286
CACTCTGC	-0.112
ACACCCGA	-0.109

Sample 2 — method: protein-binding microarray; molecule type: double-stranded DNA, one strand shown; matrix: in vitro; tested at: 250 nM; setting: 60-bp whole probe; added: salmon DNA 0.4 mg/ml; baseline: random background probes; direction: higher = stronger binding
Target: Interferon regulatory factor 5, full length, phosphomimetic (IRF5, Homo sapiens, UniProt Q13568-2, residues 1-514, K96S/S451D/S453D/S456D/S462D)
Strand	log fluorescence
GCCTAGCACTTAGGACTGCTATTCCTTTAGTGCTAGGTCTTGATTCGCTTGACGCTGCTG	-0.223 z-score
GCCTAGCACTTAGGTTTCCTTCTCCTTTCGTGCTAGGTCTTGATTCGCTTGACGCTGCTG	1.74 z-score
GCCTAGCACTCATCTCTAATTTTGAGACTGTGCTAGGTCTTGATTCGCTTGACGCTGCTG	0.328 z-score
GCCTAGCACGACGATTTCAGTATCGAGATGTGCTAGGTCTTGATTCGCTTGACGCTGCTG	4.28 z-score

Sample 3 — method: DHFR PCA, deep sequencing; matrix: yeast; added: (+)-ABA 0.032 µM; baseline: wild-type fitted maximum; direction: higher = stronger binding
Target: ABI1, truncated, D143A, DHFR fusion (Arabidopsis thaliana)
Setting: methotrexate growth selection, single substitutions
Starting sequence: PYL1, truncated, DHFR fusion (Arabidopsis thaliana); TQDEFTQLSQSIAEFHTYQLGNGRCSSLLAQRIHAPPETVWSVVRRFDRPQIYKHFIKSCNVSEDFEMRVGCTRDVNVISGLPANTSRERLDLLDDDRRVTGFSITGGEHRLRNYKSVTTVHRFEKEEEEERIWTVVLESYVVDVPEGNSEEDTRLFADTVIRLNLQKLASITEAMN; partner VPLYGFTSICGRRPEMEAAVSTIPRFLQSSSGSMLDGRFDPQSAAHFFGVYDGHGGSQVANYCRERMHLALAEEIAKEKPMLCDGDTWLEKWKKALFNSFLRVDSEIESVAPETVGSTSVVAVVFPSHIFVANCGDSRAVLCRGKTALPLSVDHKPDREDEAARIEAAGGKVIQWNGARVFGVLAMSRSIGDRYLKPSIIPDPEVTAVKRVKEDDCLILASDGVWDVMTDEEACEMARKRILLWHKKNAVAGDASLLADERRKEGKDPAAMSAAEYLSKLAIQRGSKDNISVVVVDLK
Variant	relative binding score
C60Y	6.13%
D144H	-5.39%
L169F	-6.07%
T17E	2.74%
L138M	7.61%

Further values, each from its own experiment
Molecule	target	test	test system	conditions	how to read	quantity	result
PhoQ, residues 284 288 289 292 302 303 SNSSNI	PhoP, residues 12 14 15 18 19 FWNTL (Escherichia coli, UniProt P23836)	Sort-seq, refers to: YFP reporter	E. coli	PhoQ-PhoP variant library, added: 10 µM Mg2+	baseline: high Mg2+ state, higher = stronger signaling	fold induction	1.04

Repeated from above (sample 1):
Strand	E-score
TTCATGAA	0.238
